Measured values pooled from the literature.
Parts stem from different laboratories: compare values within a part only. “And” joins repeats or separate records; there may be more than shown.
UniProt P11229, sequence (whole entry, looked up): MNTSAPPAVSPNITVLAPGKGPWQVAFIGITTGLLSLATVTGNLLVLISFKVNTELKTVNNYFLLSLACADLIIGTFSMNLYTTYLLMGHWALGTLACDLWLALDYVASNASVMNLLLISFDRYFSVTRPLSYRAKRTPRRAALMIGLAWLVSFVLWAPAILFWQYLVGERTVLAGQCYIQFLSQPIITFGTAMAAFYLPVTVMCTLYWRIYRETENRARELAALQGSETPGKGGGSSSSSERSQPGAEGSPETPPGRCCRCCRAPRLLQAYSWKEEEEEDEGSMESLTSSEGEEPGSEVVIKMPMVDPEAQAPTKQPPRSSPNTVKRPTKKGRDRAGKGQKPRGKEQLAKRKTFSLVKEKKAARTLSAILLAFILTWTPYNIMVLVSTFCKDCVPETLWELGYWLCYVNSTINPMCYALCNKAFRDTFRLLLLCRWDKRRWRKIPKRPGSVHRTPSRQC
UniProt P41143, sequence (whole entry, looked up): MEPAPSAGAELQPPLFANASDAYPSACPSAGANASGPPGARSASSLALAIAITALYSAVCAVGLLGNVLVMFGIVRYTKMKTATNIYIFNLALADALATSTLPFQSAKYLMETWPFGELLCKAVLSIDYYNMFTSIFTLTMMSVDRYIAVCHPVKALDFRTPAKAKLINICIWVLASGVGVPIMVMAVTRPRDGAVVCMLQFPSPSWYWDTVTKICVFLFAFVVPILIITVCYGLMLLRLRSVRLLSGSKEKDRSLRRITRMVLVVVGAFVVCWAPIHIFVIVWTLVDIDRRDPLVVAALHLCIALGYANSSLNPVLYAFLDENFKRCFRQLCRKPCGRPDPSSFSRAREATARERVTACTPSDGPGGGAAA
UniProt P20309, sequence (whole entry, looked up): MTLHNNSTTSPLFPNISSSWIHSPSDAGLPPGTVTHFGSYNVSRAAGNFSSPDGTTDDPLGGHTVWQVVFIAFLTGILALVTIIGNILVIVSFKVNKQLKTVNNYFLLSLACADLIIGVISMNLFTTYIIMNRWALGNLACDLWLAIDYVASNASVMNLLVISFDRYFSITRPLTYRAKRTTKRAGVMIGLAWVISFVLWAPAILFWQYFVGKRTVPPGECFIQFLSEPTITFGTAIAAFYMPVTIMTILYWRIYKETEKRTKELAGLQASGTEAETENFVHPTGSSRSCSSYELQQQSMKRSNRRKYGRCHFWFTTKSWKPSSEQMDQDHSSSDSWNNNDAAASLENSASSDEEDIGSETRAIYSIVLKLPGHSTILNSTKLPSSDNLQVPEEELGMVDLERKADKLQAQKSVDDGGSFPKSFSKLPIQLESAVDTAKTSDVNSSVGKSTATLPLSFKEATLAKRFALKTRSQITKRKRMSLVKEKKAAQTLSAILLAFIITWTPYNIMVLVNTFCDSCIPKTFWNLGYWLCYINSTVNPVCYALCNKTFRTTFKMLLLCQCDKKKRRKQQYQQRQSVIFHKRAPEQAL
UniProt P28335, sequence (whole entry, looked up): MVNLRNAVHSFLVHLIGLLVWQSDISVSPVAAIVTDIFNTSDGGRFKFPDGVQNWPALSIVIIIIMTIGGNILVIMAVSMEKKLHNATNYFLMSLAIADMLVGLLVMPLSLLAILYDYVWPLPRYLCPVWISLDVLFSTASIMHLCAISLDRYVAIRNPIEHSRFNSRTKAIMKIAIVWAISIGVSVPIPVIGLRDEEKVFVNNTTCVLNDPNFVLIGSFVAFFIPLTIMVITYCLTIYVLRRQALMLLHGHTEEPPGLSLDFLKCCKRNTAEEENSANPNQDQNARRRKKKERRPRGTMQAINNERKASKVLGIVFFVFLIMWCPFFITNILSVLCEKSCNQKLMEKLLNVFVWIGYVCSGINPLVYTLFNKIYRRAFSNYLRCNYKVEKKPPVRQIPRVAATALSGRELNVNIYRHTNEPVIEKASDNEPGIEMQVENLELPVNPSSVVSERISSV
UniProt P28223, sequence (whole entry, looked up): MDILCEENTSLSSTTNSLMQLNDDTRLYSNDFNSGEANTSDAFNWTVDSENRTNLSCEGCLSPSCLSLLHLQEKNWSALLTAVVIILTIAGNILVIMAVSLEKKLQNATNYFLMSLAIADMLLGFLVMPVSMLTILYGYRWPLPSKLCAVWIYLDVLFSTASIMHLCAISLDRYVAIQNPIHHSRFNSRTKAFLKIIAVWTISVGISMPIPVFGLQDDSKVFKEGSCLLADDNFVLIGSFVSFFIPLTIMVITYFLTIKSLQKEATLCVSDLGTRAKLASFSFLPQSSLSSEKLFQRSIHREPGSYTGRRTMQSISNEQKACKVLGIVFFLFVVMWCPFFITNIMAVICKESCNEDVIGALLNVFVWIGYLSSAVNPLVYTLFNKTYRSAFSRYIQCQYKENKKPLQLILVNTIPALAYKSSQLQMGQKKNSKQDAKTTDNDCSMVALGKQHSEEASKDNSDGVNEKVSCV
UniProt P31645, sequence (whole entry, looked up): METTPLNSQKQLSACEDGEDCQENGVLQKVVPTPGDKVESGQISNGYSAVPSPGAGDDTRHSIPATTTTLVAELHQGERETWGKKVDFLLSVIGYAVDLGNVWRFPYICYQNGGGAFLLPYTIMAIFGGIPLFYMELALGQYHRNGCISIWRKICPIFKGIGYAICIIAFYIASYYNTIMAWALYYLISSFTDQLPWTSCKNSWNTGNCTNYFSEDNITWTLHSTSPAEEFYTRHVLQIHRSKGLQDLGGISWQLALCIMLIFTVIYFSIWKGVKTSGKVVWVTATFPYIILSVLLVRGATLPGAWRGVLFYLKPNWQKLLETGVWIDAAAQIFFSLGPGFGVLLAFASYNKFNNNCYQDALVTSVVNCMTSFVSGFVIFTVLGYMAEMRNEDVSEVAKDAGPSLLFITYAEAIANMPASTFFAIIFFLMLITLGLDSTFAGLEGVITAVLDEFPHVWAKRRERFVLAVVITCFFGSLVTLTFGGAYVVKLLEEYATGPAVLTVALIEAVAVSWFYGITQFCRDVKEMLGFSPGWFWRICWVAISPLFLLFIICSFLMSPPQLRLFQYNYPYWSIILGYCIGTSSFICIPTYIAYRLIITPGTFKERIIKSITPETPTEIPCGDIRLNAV

Set 1
Cell line: mouse MPNST tumor cells
Technique: high-content immunofluorescence imaging
Measured: nuclear SOX9
Concentration: 10 µM
Time: 12 h
Setting: mean of 2 replicates
Baseline: DMSO control
Reading: higher = more nuclear SOX9
| SMILES | nuclear SOX9 intensity |
| --- | --- |
| Cc1cccc(C)c1NC(=O)CN1CCCC1=O | 99.4 % of DMSO |
| C[N+]12CCC(CC1)C(OC(=O)C(O)(c1ccccc1)c1ccccc1)C2 (stereo not shown) | 103 % of DMSO |
| Oc1ccc2c3c1O[C@H]1c4oc5ccccc5c4C[C@@]4(O)[C@@H](C2)N(CC2CC2)CC[C@]314 | 119 % of DMSO |
| Cc1ccc(C23CNCC2C3)cc1 (stereo not shown) | 101 % of DMSO |

Set 2
Structure (SMILES): CCNC(=O)c1cc2c(N3CCOC[C@@H]3C)ccnc2[nH]1
Effect on: ligand displacement
Technique: radioligand
Concentration: 10 µM
| target | inhibition |
| --- | --- |
| Muscarinic acetylcholine receptor M1 (CHRM1, Homo sapiens, UniProt P11229) | 21.7% |
| 5-hydroxytryptamine receptor 2A (HTR2A, Homo sapiens, UniProt P28223) | -7.89% |
| 5-hydroxytryptamine receptor 2C (HTR2C, Homo sapiens, UniProt P28335) | -4.02% |
| Delta-type opioid receptor (OPRD1, Homo sapiens, UniProt P41143) | -0.04% |
| Sodium-dependent serotonin transporter (SLC6A4, Homo sapiens, UniProt P31645) | -17.3% |
| Muscarinic acetylcholine receptor M3 (CHRM3, Homo sapiens, UniProt P20309) | -11.6% |

Set 3
SMILES: CNC(=O)c1ccc(-c2cnn3ccc(C(=O)N(C)c4ccc(Cl)c(C(=O)OC)c4)cc23)cc1
Organism: Cryptosporidium parvum
Technique: qPCR
Host: IFN-γ knockout mouse
| matrix | dose | time | faecal oocyst shedding |
| --- | --- | --- | --- |
| faeces | 10 mg/kg | day 3 post treatment | 4.59 log oocysts/g faeces and 5.23 log oocysts/g faeces and 4.52 log oocysts/g faeces |
| – | 3 mg/kg | day 1 post treatment | 6.38 log oocysts/g faeces |
| – | 10 mg/kg | day 3 post treatment | 4.78 log oocysts/g faeces |
| faeces | 3 mg/kg | day 3 post treatment | 5.97 log oocysts/g faeces and 5.86 log oocysts/g faeces and 5.64 log oocysts/g faeces |
| – | 1 mg/kg | day 1 post treatment | 6.46 log oocysts/g faeces |

Other studies, line by line
| Structure (SMILES) | host | route | dose | setting | quantity | value |
| --- | --- | --- | --- | --- | --- | --- |
| COc1ccc(-c2c(Nc3ccccn3)[nH]c3c(C4=CCCCC4)c(-c4ccccc4)nn3c2=O)cc1 | patients with advanced malignancies | oral | dose not given | treatment-emergent adverse events | urinary tract infection incidence | 10% |

Excerpt of the above (set 1):
| SMILES | nuclear SOX9 intensity |
| --- | --- |
| C[N+]12CCC(CC1)C(OC(=O)C(O)(c1ccccc1)c1ccccc1)C2 (stereo not shown) | 103 % of DMSO |
| Oc1ccc2c3c1O[C@H]1c4oc5ccccc5c4C[C@@]4(O)[C@@H](C2)N(CC2CC2)CC[C@]314 | 119 % of DMSO |
